Measured values gathered from unrelated publications.
Compare with care: the assays were run in different laboratories. “And” joins repeats or separate records; there may be more than shown. ± marks the error that the study gave.
Chain of UniProt O75676 (whole entry, looked up): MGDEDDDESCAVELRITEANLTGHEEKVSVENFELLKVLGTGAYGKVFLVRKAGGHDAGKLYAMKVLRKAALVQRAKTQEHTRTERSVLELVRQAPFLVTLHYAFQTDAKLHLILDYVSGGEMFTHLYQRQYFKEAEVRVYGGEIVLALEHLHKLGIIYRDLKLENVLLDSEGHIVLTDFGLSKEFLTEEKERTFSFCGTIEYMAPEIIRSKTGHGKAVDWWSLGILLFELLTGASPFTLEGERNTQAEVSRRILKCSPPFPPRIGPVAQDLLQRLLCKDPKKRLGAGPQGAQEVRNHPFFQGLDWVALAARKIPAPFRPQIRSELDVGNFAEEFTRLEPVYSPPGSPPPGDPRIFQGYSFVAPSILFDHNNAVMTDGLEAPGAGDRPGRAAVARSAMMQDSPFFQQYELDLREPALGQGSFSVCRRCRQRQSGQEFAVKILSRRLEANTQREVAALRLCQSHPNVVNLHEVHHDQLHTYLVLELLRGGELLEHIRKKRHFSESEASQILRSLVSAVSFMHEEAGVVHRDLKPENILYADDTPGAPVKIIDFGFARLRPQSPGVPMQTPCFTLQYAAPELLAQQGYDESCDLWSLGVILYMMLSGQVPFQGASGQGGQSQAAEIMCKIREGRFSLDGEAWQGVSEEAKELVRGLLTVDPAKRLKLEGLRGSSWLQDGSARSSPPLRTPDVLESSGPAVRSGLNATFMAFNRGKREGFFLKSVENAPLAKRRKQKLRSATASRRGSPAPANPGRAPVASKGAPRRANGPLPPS
Chain of UniProt O15264 (whole entry, looked up): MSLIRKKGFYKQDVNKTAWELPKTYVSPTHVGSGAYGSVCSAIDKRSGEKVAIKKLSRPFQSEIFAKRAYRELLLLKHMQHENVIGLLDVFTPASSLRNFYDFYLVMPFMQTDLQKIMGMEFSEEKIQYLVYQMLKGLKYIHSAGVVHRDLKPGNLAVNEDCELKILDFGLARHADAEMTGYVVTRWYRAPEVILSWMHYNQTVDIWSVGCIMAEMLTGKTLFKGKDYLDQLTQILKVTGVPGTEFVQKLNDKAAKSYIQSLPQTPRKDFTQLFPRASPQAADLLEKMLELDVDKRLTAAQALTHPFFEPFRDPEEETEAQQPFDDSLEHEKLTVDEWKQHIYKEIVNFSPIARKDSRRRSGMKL
Chain of UniProt O75582 (whole entry, looked up): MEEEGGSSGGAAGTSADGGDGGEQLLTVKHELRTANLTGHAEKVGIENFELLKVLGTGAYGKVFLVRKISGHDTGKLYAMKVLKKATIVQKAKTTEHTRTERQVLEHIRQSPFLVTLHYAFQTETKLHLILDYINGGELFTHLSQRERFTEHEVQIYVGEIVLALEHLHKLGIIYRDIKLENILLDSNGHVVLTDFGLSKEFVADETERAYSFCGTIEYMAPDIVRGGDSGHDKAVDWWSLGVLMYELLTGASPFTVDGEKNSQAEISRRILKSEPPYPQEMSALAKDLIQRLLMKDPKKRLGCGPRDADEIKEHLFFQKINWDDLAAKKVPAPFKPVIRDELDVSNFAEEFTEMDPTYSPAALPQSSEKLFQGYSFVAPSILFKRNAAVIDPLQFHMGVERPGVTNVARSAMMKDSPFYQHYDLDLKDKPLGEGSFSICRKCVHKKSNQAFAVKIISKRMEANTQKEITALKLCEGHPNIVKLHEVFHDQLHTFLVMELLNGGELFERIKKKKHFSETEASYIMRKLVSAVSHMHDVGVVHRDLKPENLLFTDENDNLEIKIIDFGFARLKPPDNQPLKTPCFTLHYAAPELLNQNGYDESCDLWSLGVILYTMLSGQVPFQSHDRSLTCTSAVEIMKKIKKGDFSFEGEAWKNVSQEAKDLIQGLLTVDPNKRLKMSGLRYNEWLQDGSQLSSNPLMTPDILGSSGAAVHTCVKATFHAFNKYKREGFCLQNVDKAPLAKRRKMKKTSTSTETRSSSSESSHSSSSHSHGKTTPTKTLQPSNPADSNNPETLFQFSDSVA

Compound	target or system	assay	system	conditions	how to read	measurement	value
CC(C)[C@H]1NC(=O)C[C@H]2/C=C/CCSSC[C@@H](NC1=O)C(=O)N[C@H](Cc1cccc3ccccc13)C(=O)NCC(=O)O2	MAPK13 (Homo sapiens, UniProt O15264)	enzyme activity, inhibitor		10 µM		inhibition	-3.6%
NNC(=O)c1ccccc1		hydrazine ligation kinetics, absorbance		concentration not given, 20 s, with: 2-formylphenylboronic acid		normalised absorbance	0.596
CS(C)(=O)=Nc1ccc(-c2ccc(-c3nc4cc(O[C@@H]5CO[C@H]6[C@@H]5OC[C@H]6O)[nH]c4cc3F)cc2)cc1	RPS6KA5 (Homo sapiens, UniProt O75582)	enzyme activity, inhibitor		10 µM		inhibition	-15%
CN(C)[C@H]1C[C@@]23CC[C@@]4(O2)C(=CC[C@]2(C)[C@@H](c5ccc6ccncc6c5)CC[C@H]24)C=C3[C@@H](O)[C@@H]1O	Ribosomal protein S6 kinase alpha-4, N-terminal kinase domain (RPS6KA4, Homo sapiens, UniProt O75676)	ATP probe labelling, inhibitor, KiNativ profiling		1 µM		inhibition	1.3%
Cc1cc(C(=O)Nc2nc3cccc(C)c3n2[C@H]2CCCCN(C(=O)/C=C/CN(C)C)C2)ccn1	Trypanosoma brucei brucei		2T1 wild type	0.00038 µM		survival	102% and 103% and 100% and 117% and 108% and 90.4%
CC(C)CC(C(=O)N1CC2(CC1C#N)C(=O)Nc1ccccc12)N(C)C(=O)c1cc2c(F)cc(F)c(F)c2[nH]1 (stereo not shown)	Human coronavirus 229E	cytopathic effect	MRC5	5.6 nM		inhibition	81%
CC(C)(C)C(=O)OCOP(=O)(OCOC(=O)C(C)(C)C)C1CCCN(O)C1=O (stereo not shown)	MCF7					TGI	3.86 µM
COc1ccccc1-c1n[nH]c2nc(N[C@H]3CC[C@H](NS(=O)(=O)CC(C)C)CC3)ncc12		bead binding, competition bead pull-down, measured: LINJ.35.5450	Leishmania donovani extract	10 µM	baseline: vehicle	relative abundance	0.91
Cc1ccc(N2CC3CC(C2)N3C)cc1C(=O)NC1(c2ccc3c4c(cccc24)C(=O)N3C)CC1	human coronavirus 229E	viral replication	Huh-7	3 µM		inhibition	50%
Cc1cc(Oc2nc(N3CC[C@@H](c4ccncc4)C3)ncc2F)[nH]n1	Mycobacterium tuberculosis		THP-1, H37Rv non-replicating	30 µM, day 4		normalised growth	47.2% and 30.2%
O=C1NC2(CC2)COc2ncc(F)cc2[C@H]2COCCN2c2ccn3ncc1c3n2			Sprague-Dawley rat, female, spleen	oral, 10 mg/kg/day, 4 weeks dosing, end of recovery		organ-to-brain weight ratio	41.1 ± 4.97%
O=C1NC(=O)c2c1c1cc(F)c[n+]3c1c1c2c2cc(O)ccc2[n]1[Ru-4]312([N]=C=S)[S+]3CC[S+]1CC[S+]2CC3 (stereo not shown)	RPS6KA4 (Homo sapiens, UniProt O75676)	enzyme activity		100 nM, human enzyme, with: 10 µM ATP	baseline: untreated	remaining activity	4%
COc1ccccc1-c1n[nH]c2nc(NC3CCN(C(=O)Cc4ccc(F)cc4F)CC3)ncc12		bead binding, competition bead pull-down, measured: LINJ.35.4540	Leishmania donovani extract	10 µM	baseline: vehicle	relative abundance	0.94
CCOC(=O)C1(Cc2cccc(C)c2)Oc2cc(F)ccc2N(Cc2cccc(C)c2)C1=O (stereo not shown)	Arabidopsis thaliana	root length, petri dish germination	Col-0, 1/2 MS medium	200 µg/mL, 7 days, 22 °C, dark		inhibition	75.6%
CC(C)C[C@@H]1NC(=O)[C@@H](Cc2c[nH]c3ccccc23)NC(=O)[C@H](CCCNC(=N)N)NC(=O)[C@@H](CCC(=O)O)NC(=O)[C@H](CCC(N)=O)NC(=O)[C@@H](CCC(=O)O)NC(=O)[C@H](CCCNC(=N)N)NC(=O)[C@@H](Cc2c[nH]c3ccccc23)NC1=O		measured: LIF	LDLr-/- mouse on Western diet, liver	dose not given, 4 weeks		cytokine level	7.1 ± 4 pg/g tissue
O=S(=O)(c1ccc(-c2ccc3ncnc(Nc4ccc(OCc5ccc(C(F)(F)F)c(F)c5)c(Cl)c4)c3c2)cc1)N1CCOCC1	Plasmodium falciparum	parasite growth, SYBR Green fluorescence	W2, drug-resistant			EC50	1100 nM
